Assay results from different studies.
Each line is one published result; not all experiments were run side by side. ± gives the spread as reported.

| Compound | technique | medium | time | pH | temperature | notes | solubility |
| --- | --- | --- | --- | --- | --- | --- | --- |
| O=C(Nc1ccc2ccccc2c1)C1CC2(CCC2)C1 | kinetic solubility | PBS with 2% DMSO | 2 h | pH 7.4 | 25 °C | mean of incubations | 7 µM |
| CC(C)N(Cc1ccccc1)C(=O)C1(C(F)(F)F)CCC1 | – | PBS | – | pH 7.4 | 25 °C | 2% DMSO | 235 µM |
| Cc1cc(C(=O)N[C@@H](CC(=O)NC(C)(C)C)C(=O)NCCNC(=O)c2cc(-c3ccccc3)ccn2)no1 | – | aqueous buffer | – | pH 7.4 | – | – | 72 µg/mL |
| O=C1Nc2ccc(I)cc2C1=Cc1ccc(C(=O)O)cc1 | AlphaScreen buffer | aqueous buffer, 7.5% DMSO | – | pH 7.3 | – | – | 356 ± 18 µM |
| CC(=O)O[C@H]1C(=O)[C@@]2(C)[C@H]([C@H](OC(=O)c3ccccc3)[C@]3(O)C[C@H](OC(=O)[C@H](OCOP(=O)(O)O)[C@@H](NC(=O)c4ccccc4)c4ccccc4)C(C)=C1C3(C)C)[C@]1(OC(C)=O)CO[C@@H]1C[C@@H]2O | HPLC, saturated solution | HBSS | 30 s | pH 6.5 | – | – | 100 µg/mL |
| CN(C)S(=O)(=O)c1ccc(S(=O)(=O)N2CCC(n3c(=O)[nH]c4ccccc43)CC2)cc1 | HPLC | Miglyol 912 | 24 h | – | 20 °C | – | 2 µg/mL |
| O=C1Nc2cc(Cl)c(Cl)cc2C1=Cc1cc(Br)c(O)c(Br)c1 | AlphaScreen buffer | aqueous buffer, 7.5% DMSO | – | pH 7.3 | – | – | 42.9 ± 7.3 µM |
| CC1CCC2C(C)C(OC(=O)CCC(=O)OCCOCCOC(=O)N3CCC(Nc4ccc(S(=O)(=O)NC(=O)c5ccc(N6CCN(CC7=C(c8ccc(Cl)cc8)CC(C)(C)CC7)CC6)cc5Oc5cnc6[nH]ccc6c5)cc4[N+](=O)[O-])CC3)OC3OC4(C)CCC1C32OO4 (stereo not drawn) | – | – | – | – | – | – | 2.76 µg/mL |
| O=C(Nc1cccc(C(=O)N2CCC(c3nc(-c4ccccc4)n[nH]3)CC2)c1)c1ccccc1 | LC-MS | DPBS | 18 h | – | – | – | 25.6 ± 0.2 µM |
| OCC1OC(n2cnc3c(NCc4ccc(Br)s4)ncnc32)C(O)C1O (stereo not drawn) | – | acetate buffer | – | pH 4.5 | – | – | 260 µg/mL |
| O=C1Nc2cc(I)ccc2C1=Cc1cc(Br)c(O)c(Br)c1 | AlphaScreen buffer | aqueous buffer, 7.5% DMSO | – | pH 7.3 | – | – | 163 ± 14 µM |
| CCc1cc(C)cc(CC)c1-c1c(OC(=O)C2(C(F)(F)F)CCC2)n2n(c1=O)CCOCC2 | – | PBS | 2 h | pH 7.4 | 25 °C | – | 282 µM |
| C#CCN(C(=O)OCc1ccc(C(=O)N(C)C)cc1)[c-]1cccc1.[Fe+2].c1cc[cH-]c1 | absorbance | PBS | – | pH 7.4 | – | 1% DMSO | 117 ± 3 µM |
| Cc1cc(NC(=O)c2ccc(Br)cc2)n[nH]1 | – | aqueous buffer | – | pH 7.4 | – | – | 15.9 µg/mL |
| O=c1c2ccccc2[se]n1CCCCCCn1[se]c2ccccc2c1=O | shake-flask, RP-HPLC | PEG 200 | 24 h | – | 25 °C | – | 2950 ± 70 µg/mL |
| CSCc1cn(-c2cccc(C(=O)N3CCC(c4nc(-c5ccccc5)n[nH]4)CC3)c2)nn1 | UV | DPBS | 18 h | – | room temperature | – | 75.4 ± 4.7 µM |
| O=C(N[c-]1cccc1)OCc1ccc(F)cc1.[Fe+2].c1cc[cH-]c1 | absorbance | RPMI medium with 5% FBS | – | – | – | 1% DMSO | 121 ± 5 µM |
| CCC1(CC)CC(=O)N(C2CCOc3ccc(C(=O)NC4CC(C)(C)Oc5ccccc54)cc32)C(=N)N1 (stereo not drawn) | – | simulated gastric fluid | – | pH 2 | – | – | ≥ 100 µM |
| CN(Cc1ccc(C2(C(F)(F)F)CCC2)cc1)Cc1cccc2ccccc12 | – | PBS | 2 h | pH 7.4 | 25 °C | – | 8 µM |
| CC1(C)C(=CC=C2CCCC(C=CC3=[N+](CCC[N+](C)(C)C)c4ccc(S(=O)(=O)O)cc4C3(C)C)=C2SCCOCCOCCC(=O)O)N(CCC[N+](C)(C)C)c2ccc(S(=O)(=O)O)cc21 | – | DMSO | – | – | – | – | 140000 µg/mL |
| FC(F)(F)C1(c2ccc(CN3CCN(C(c4ccccc4)c4ccc(Cl)cc4)CC3)cc2)CC1 (stereo not drawn) | – | PBS | – | pH 7.4 | 25 °C | 2% DMSO | 4 µM |

| Compound | technique | medium | time | pH | temperature | notes | solubility |
| --- | --- | --- | --- | --- | --- | --- | --- |
| O=C(Nc1ccc2ccccc2c1)C1CC2(CCC2)CO1 (stereo not drawn) | kinetic solubility | PBS with 2% DMSO | 2 h | pH 7.4 | 25 °C | single incubation | 118 µM |
| Cc1ccc2c(c1)NC(=O)C2=Cc1cc(Br)c(O)c(Br)c1 | AlphaScreen buffer | aqueous buffer, 7.5% DMSO | – | pH 7.3 | – | – | 342 ± 29 µM |
| Cc1cc(C(=O)N[C@@H](CC(=O)NC(C)(C)C)C(=O)NCCNC(=O)c2cccc(-n3cccn3)c2)no1 | – | aqueous buffer | – | pH 7.4 | – | – | > 110 µg/mL |
| O=c1[nH]c2cccnc2n1-c1ccc2c(c1)OC1(CCCCC1)O2 | – | simulated gastric fluid | – | pH 2 | – | – | 3 µM |
| C[C@]12COc3ccc(Oc4ccccc4)cc3[C@H]1CCN2 | – | PBS | 2 h | pH 7.4 | – | – | 258 µM |
| CC1(C)OCCc2cc(C(=O)N3CCC(c4nc(-c5ccccc5)n[nH]4)CC3)ccc21 | LC-MS | DPBS | 18 h | – | – | – | 44.2 ± 0.7 µM |
| CN(C)C(=O)c1ccc(COC(=O)N[c-]2cccc2)cc1.[Fe+2].c1cc[cH-]c1 | absorbance | PBS | – | pH 7.4 | – | 1% DMSO | > 200 µM |
| CC(C)(C)NC(=O)c1ccccc1 | – | PBS | 2 h | pH 7.4 | 25 °C | 2% DMSO | 313 µM |
| O=C(OCc1ccc(F)cc1)N(Cc1cccc(CN2CCCCC2)c1)[c-]1cccc1.[Fe+2].c1cc[cH-]c1 | absorbance | RPMI medium with 5% FBS | – | – | – | 1% DMSO | 102 ± 28 µM |
| CC(C)N(Cc1ccccc1)C(=O)C1(C(F)(F)F)CC1 | – | PBS | – | pH 7.4 | 25 °C | 2% DMSO | 276 µM |
| CC1(C)OB(c2ccc(COC(=O)N(Cc3cn(-c4cc5ccc(O)cc5oc4=O)nn3)[c-]3cccc3)cc2)OC1(C)C.[Fe+2].c1cc[cH-]c1 | absorbance | RPMI medium with 5% FBS | – | – | – | 1% DMSO | > 180 µM |
| CCCCCCCC/C=C/CCCCCCCC(=O)[O][Pt-2]1([OH])([Cl])([NH+]=C(CC)N(C)CCNc2c3ccccc3[nH+]c3ccccc23)[NH2+]CCC[NH2+]1.O=[N+]([O-])[O-].O=[N+]([O-])[O-] | – | buffer | – | pH 7.0 to 7.4 | – | – | ~10 µM |
| OC[C@H]1O[C@@H](n2cnc3c(SCc4ccccc4)nc(Cl)nc32)C[C@@H]1O | UV absorbance | culture medium | – | – | – | stock diluted to 0.20 mM | 20.8 µM |
| O=C(Nc1ccc2ccccc2c1)C1CC2(CC2)CO1 (stereo not drawn) | kinetic solubility | PBS with 2% DMSO | 2 h | pH 7.4 | 25 °C | mean of incubations | 360 µM |
| O=C1Nc2ccc(I)cc2C1=Cc1cc(Br)c(O)c(Br)c1 | AlphaScreen buffer | aqueous buffer, 7.5% DMSO | – | pH 7.3 | – | – | 140 ± 6.3 µM |
| O=C(NC1(C(F)(F)F)CCC1)c1ccccc1 | – | PBS | 2 h | pH 7.4 | 25 °C | 2% DMSO | 333 µM |
| O=C1Nc2ccc(I)cc2C1=Cc1cc(Br)cc(Br)c1 | AlphaScreen buffer | aqueous buffer, 7.5% DMSO | – | pH 7.3 | – | – | 10.7 ± 2 µM |
| O=C(Nc1ccc2ccccc2c1)C1CC2(CO1)CC(F)(F)C2 (stereo not drawn) | kinetic solubility | PBS with 2% DMSO | 2 h | pH 7.4 | 25 °C | mean of incubations | 34 µM |
| CCCCCCC1CCC/C1=N\NC(N)=S (stereo not drawn) | – | PBS | – | pH 7.4 | 23 °C | 1% DMSO | 1.3 µM |
| O=C(Nc1ccccc1)C1(C(F)(F)F)CCC1 | – | PBS | – | pH 7.4 | 25 °C | 2% DMSO | 399 µM |
| Cn1ccc([C@H](CCO)Nc2nc(N3CCOCC3)c3cc(-c4ccccc4)sc3n2)n1 | – | – | – | – | – | – | 150 µM |

Some of these lines once more:
| Compound | technique | medium | time | pH | temperature | notes | solubility |
| --- | --- | --- | --- | --- | --- | --- | --- |
| C#CCN(C(=O)OCc1ccc(C(=O)N(C)C)cc1)[c-]1cccc1.[Fe+2].c1cc[cH-]c1 | absorbance | PBS | – | pH 7.4 | – | 1% DMSO | 117 ± 3 µM |
| Cc1ccc2c(c1)NC(=O)C2=Cc1cc(Br)c(O)c(Br)c1 | AlphaScreen buffer | aqueous buffer, 7.5% DMSO | – | pH 7.3 | – | – | 342 ± 29 µM |
